Results from different studies.
Each numbered part is a random draw from the data of one study; scales do not carry over between parts. Positions count from the first letter of the parent shown.

Series 1 — method: RNA Bind-n-Seq; form: RNA; medium: in vitro; tested at: 365 nM; relative to: no-protein control; direction: higher = stronger binding
Target: RNA binding protein fox-1 homolog 2, RRM domain, GST-SBP tag (RBFOX2, Homo sapiens, UniProt O43251-10, residues 100-194)
Notes: natural RNA segment, single round, ends assumed
Residues (chain): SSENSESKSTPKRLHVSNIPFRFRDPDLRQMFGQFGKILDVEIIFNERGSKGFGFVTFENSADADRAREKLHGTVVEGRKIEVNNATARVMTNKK
`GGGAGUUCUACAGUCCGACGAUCCUUUGUUUGCGGUGUACUGAGGGACCGAUGUAUCCACUGGAAUAGUUGGUACUCUCGGACAGGUUUUCUCACUGAGAUGAGCAGAGAAGGGUUUGCACAGGGGAGUGUGAUGGAAUUCUCGGGUGCCAA`: “RBNS enrichment (R)” 1.14.
Under “RBNS enrichment (R)”, `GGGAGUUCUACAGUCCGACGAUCGUUUUAAUCACAUUCACUUUACUUGAAAUUAUGUUGUUACACAACAAAUUGUGGGGCCUUCAAAUUGUUUUUCUCUUUUCAUAUUAAAAAUGGUCUUUCUGUGAACUAGCUGGAAUUCUCGGGUGCCAA` is recorded as 0.745.
`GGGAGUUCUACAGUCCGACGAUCAGGGGCCAUAUCAUUCAUGGCCAAAAAAAACCAAAAAGCAAAAAACAAAAACAAGUCCCAUGUCCUACUGACUCUAGUUCUUCCAGUCGUUAUCCUCUGCUGUCUCUCUGUGGAAUUCUCGGGUGCCAA`: “RBNS enrichment (R)” 0.541.
`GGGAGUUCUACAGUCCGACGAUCGUAAAUGCUAAUGCAGCCCAGCCCUGCCUGUUGUUUUGGAUCCUUGGUGUCUCAUGUGUACUUCCUGUCUGUCCCCUUUGAUGGCUGUGCGGUCAUCCUAUCGGCGUGGCUGGAAUUCUCGGGUGCCAA` — result for “RBNS enrichment (R)”: 0.552.
For `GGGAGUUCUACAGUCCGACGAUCCCAAACACACAAGCUCUCAGCCACAGGCAGCUUCUCCACAGCCCCAGCUUCGCACAGGCUCCUGGAGGGCUGCCUGGGGGAGGCAGACAUGGGAGUGCCAAGGUGGCCAGUGGAAUUCUCGGGUGCCAA`, “RBNS enrichment (R)” read 0.241.
For `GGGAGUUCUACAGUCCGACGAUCGGGGGACAAGGAGGGUAAGAAAACCACUGCGUGUCCGGGCAUAAUUGAAGCUUGCUCUCCCUAGAUGGGUGGUCUGCUCUCGGUCCUUCUCUGCUCUCUAUAAAAUGGUGUGGAAUUCUCGGGUGCCAA`, “RBNS enrichment (R)” read 1.34.
`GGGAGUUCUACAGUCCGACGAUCCGUCUUUAAAGGAAAAGGCCUUUUUUCCAGUCAAUCAGUCAGUCAGUCAGUCAGUCAGUCAUACUGGGAGAAGCUAGCCUUGCAUCCCUAGCACUGUCUCUUCCUGGCAGUGGAAUUCUCGGGUGCCAA` — result for “RBNS enrichment (R)”: 0.296.
Under “RBNS enrichment (R)”, `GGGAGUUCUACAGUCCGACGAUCGUUCUGUGCUAGAGAUUGAGAACAAUGUAAAGACUUGAGGCUUAGGUAGUGCUCUAUCUGGUCAGGCUAUAGGCUGCGGGCAGCCUUCACUUCCAACCAGCCGCUGUGAGUGGAAUUCUCGGGUGCCAA` is recorded as 2.4.

Series 2 — method: RNA Bind-n-Seq; form: RNA; medium: in vitro; tested at: 20 nM; notes: 6-mer, flanks averaged, single round; added: 150 mM KCl; relative to: input library; direction: higher = stronger binding
Target: TAR DNA-binding protein 43, full length, His tag (TARDBP, Homo sapiens, UniProt Q13148, residues 1-414)
Under “6-mer enrichment (R)”, `ACAAGA` is recorded as 0.754.
`CUGGUG`: “6-mer enrichment (R)” 1.33.
`AGCAAG` — result for “6-mer enrichment (R)”: 1.02.
`UCCCCA`: “6-mer enrichment (R)” 0.659.
For `UUGCCG`, “6-mer enrichment (R)” read 0.776.
Under “6-mer enrichment (R)”, `GCCUGU` is recorded as 0.804.
`UUUUUC` — result for “6-mer enrichment (R)”: 0.728.
`AUGCUG` — result for “6-mer enrichment (R)”: 0.852.
`GGCCCG`: “6-mer enrichment (R)” 1.32.
For `GUCAAU`, “6-mer enrichment (R)” read 0.672.
For `UUUCCA`, “6-mer enrichment (R)” read 0.583.

Series 3 — method: RNA Bind-n-Seq; form: RNA; medium: in vitro; tested at: not given; relative to: input RNA pool; direction: higher = stronger binding
Target: RING finger protein unkempt homolog, zinc fingers 1-6, GST-SBP tag (UNK, Homo sapiens, UniProt Q9C0B0, residues 30-357)
Chain of UniProt Q9C0B0 (30-357, looked up): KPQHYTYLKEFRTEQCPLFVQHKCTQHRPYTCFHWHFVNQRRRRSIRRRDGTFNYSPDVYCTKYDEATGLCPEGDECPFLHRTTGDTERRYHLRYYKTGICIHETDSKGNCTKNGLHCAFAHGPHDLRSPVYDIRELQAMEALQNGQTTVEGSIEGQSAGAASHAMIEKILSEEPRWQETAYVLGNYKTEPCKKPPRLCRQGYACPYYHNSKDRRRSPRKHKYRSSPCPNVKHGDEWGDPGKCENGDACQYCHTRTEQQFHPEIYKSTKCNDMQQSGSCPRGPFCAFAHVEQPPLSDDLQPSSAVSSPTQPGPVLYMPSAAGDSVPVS
Notes: RNA with constant flanks, human-mouse chimeric sites, ends assumed
`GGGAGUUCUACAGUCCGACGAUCGGUGGGGUGGUCAUUGCGCCAAUUGAGGCUGAUUUUCAUGAGUCGCCCAUUCAGAACUCGUGUAGGGUUGACAAUGUGGGGGGGUGGGGGAUCCAGCUUAUUCUUUUAUUUUCAAGUCCACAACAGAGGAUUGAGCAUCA` gave a bound/input enrichment of 0.841 ratio.
`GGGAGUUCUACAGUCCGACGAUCCUCUUUGAAUCUUUCAAGAGUUUUGAAGGUCUCUUUUAUUUUCUGGGGUCCAUUGUUAACUUUAGCCAGGACCCAGAUGUGCACUUUAAAUAUAUUCAGGCGGCUUGCAAGACUGGGCAACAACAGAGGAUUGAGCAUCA` has a bound/input enrichment of 0.413 ratio.
With `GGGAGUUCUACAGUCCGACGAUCUCCCAAAUCCAGCAGCUAGAAGGAGCCUUGAGACAAACACUCCACACACAGGGAAGGCAAUAGCUUUGUACAUUGGUUUACAUUUUUCUCCUUGAAUGAUUUUUCUAGAGGUCAUAGUGCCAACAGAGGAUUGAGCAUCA` the bound/input enrichment was 0.86 ratio.
`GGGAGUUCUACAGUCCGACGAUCAACUUCGUACAUAGAUUUCCCUUUGUAGCUGUUUCAAUUGGCUUCCUUGUAAAUAAAGAGAUGGAGUUUGGAAUUGUGUACAGCUGUGUGGAAGAUAAGAUGUACACCGGCAGGAAAGGGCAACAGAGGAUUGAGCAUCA` has a bound/input enrichment of 0.677 ratio.
For `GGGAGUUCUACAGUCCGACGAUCCAGUCCCGCGACAGCGUUGCAGGACGAUGUGAACAAAAACUCAAAGCGGACCCUCUAUUGUAGUUCUUGAUUCUCGAGUGCCAUUAUUAUUGUUUGUCUUUUUUUUUUUUUUUUUAAAGACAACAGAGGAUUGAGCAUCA`, the bound/input enrichment was 1.22 ratio.
For `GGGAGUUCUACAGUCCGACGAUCUACUACUAUGAUGGUGAUAUUGGCAAUUAUUAUUAUGGCCAGGGUCAUCCCAUGAAGCCUCAUAGAAUCCGGAUGACCCAUAACUUGCUGCUAAAUUAUGGUUUAUACCGAAAAAUGGAACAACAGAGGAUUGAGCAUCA`, the bound/input enrichment was 0.224 ratio.
With `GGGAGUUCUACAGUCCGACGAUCCGCUGGCCCAAGCUGAUGGACUCUGAUGGCCUCCAUCUCUCAGGCACGUGUGCCUUCUCUUAGUCCCUGUUUUCGGGUCACAAAGCUCAGUAUCAUGGUGGUUUGAAAGCACCAGCUUUGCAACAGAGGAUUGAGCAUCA` the bound/input enrichment was 0.115 ratio.
With `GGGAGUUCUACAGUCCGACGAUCAAUUUCCUGUCAUACUUUGUAGCAAGACACAUCAGACUUACAGAGCACCUGGCCACAUUCUAGGUUUGUGUUAUUUCUCAGCUAUGGAUAUGAUCAAAUGAGAACACUGCUUAACUAAUGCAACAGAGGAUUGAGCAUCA` the bound/input enrichment was 0.162 ratio.

Series 4 — target: CCNE2, cyclin fold, Cln2 fusion (human); method: yeast growth competition, sequencing; medium: yeast; notes: strong parent motif; relative to: not given; direction: higher = stronger binding
Parent: RBL1 docking peptide (human); GSAKRRLFGEDPP
`G9A` — result for “normalised enrichment score”: 6.18.
`L7T`: “normalised enrichment score” -0.41.
Under “normalised enrichment score”, `R5M` is recorded as 0.241.
`L7G` — result for “normalised enrichment score”: -0.261.
`R6S`: “normalised enrichment score” 1.39.
For `E10T`, “normalised enrichment score” read 3.5.
`G1N`: “normalised enrichment score” 5.32.
`L7K` — result for “normalised enrichment score”: 0.765.
Under “normalised enrichment score”, `S2R` is recorded as 4.1.
`G9I` — result for “normalised enrichment score”: 5.4.
For `G1D`, “normalised enrichment score” read 4.29.
`S2G` — result for “normalised enrichment score”: 4.66.
`P12Y`: “normalised enrichment score” 4.29.
Under “normalised enrichment score”, `L7I` is recorded as 1.8.
`F8Y` — result for “normalised enrichment score”: 0.692.
`S2N` — result for “normalised enrichment score”: 4.35.
`G1S`: “normalised enrichment score” 4.4.
For `P13G`, “normalised enrichment score” read 3.69.
`P13K`: “normalised enrichment score” 3.28.
For `P12C`, “normalised enrichment score” read 4.05.
`S2P` — result for “normalised enrichment score”: 3.45.
`R6Q` — result for “normalised enrichment score”: 2.39.
`A3S`: “normalised enrichment score” 0.618.
`E10V` — result for “normalised enrichment score”: 2.83.
Under “normalised enrichment score”, `R5A` is recorded as -0.0173.

Repeated from above (series 4):
For `E10T`, “normalised enrichment score” read 3.5.
`G1N`: “normalised enrichment score” 5.32.
`L7K` — result for “normalised enrichment score”: 0.765.
Under “normalised enrichment score”, `S2R` is recorded as 4.1.
`G9I` — result for “normalised enrichment score”: 5.4.
For `G1D`, “normalised enrichment score” read 4.29.
`S2G` — result for “normalised enrichment score”: 4.66.
`P12Y`: “normalised enrichment score” 4.29.
